{"data": "Assay results gathered from unrelated publications", "note": "Protocols differ between the studies behind these lines. Values joined by “and” are separate records of one study, mostly repeats; a detail may differ. ± gives the spread as reported.", "chain of UniProt P05177 (whole entry, looked up)": "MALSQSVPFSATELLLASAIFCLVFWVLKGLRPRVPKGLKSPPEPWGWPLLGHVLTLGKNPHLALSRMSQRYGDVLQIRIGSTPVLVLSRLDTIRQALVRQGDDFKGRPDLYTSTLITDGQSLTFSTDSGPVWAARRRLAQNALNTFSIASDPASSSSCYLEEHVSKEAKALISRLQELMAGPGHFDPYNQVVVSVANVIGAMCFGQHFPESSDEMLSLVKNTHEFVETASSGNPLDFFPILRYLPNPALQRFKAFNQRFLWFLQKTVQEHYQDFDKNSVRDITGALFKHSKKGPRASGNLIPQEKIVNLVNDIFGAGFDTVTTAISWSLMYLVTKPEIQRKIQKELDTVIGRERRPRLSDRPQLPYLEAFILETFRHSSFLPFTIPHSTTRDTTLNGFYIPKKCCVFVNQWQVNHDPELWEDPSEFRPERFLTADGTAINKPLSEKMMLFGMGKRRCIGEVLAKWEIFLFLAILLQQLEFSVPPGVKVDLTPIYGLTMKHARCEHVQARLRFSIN"}
{"Structure (SMILES)": "CN1CCCNC(=O)c2cccc(c2)C(=O)NCCCN(C)CCCNc2cccc3c2C(=O)c2cccc(c2C3=O)NCCC1", "tested on": "HEK293", "assay": "cell growth or viability, CCK-8", "conditions": "15 nM, 48 h", "quantity": "viability", "value": "95.9%"}
{"Structure (SMILES)": "O=C1C2CC3CC1CC(C(=O)N1CCN(c4ccc([N+](=O)[O-])c5ncccc45)CC1)(C3)C2", "tested on": "Salmonella typhimurium", "assay": "Ames test", "test system": "TA97a", "conditions": "0.05 µg/well, with S9", "quantity": "mean revertant colonies", "value": "22 colonies/well"}
{"Structure (SMILES)": "CCN(CC)CC#CCNc1ccnc2cc(Cl)ccc12", "tested on": "Salmonella typhimurium", "assay": "mini-Ames test", "test system": "TA98", "conditions": "125.0 µg/well, with rat liver S9", "quantity": "revertants", "value": "14 revertants/well and 15 revertants/well"}
{"Structure (SMILES)": "COC(=O)Nc1nc2cc(C(O)c3ccc(F)cc3)ccc2[nH]1 (stereo not shown)", "tested on": "Salmonella typhimurium", "assay": "Ames preincubation test", "test system": "TA1537", "conditions": "54.7 µg/plate, without S9", "quantity": "revertants", "value": "11.3 revertants/plate"}
{"Structure (SMILES)": "CCCCC(CSS(=O)(=O)O)NCC(C)C (stereo not shown)", "tested on": "Schistosoma mansoni", "assay": "perfusion day 62", "test system": "infected Swiss Webster mice", "conditions": "100 mg/kg", "quantity": "body weight", "value": "32.2 g and 36.7 g and 29 g"}
{"Structure (SMILES)": "C=CC(=O)Nc1cccc(Cn2ncc3cnc(Nc4cnn(CCOC)c4)nc32)c1", "tested on": "PKN2 human", "assay": "binding, KINOMEscan", "conditions": "100 nM", "scale": "lower = stronger binding", "quantity": "percent of control", "value": "42%"}
{"Structure (SMILES)": "O=C1NC2(CC2)COc2ncc(F)cc2[C@H]2COCCN2c2ccn3ncc1c3n2", "tested on": "CHL cells", "assay": "chromosomal aberration test", "conditions": "5 µg/mL, 24 h, without S9 mix", "quantity": "cells with chromosome gaps", "value": "0%"}
{"Structure (SMILES)": "CCCCCCC(CSS(=O)(=O)O)NCC(C)C (stereo not shown)", "tested on": "Schistosoma mansoni", "assay": "perfusion day 62", "test system": "infected Swiss Webster mice", "conditions": "100 mg/kg", "quantity": "body weight", "value": "29.8 g and 31.2 g and 34 g"}
{"Structure (SMILES)": "Cc1ncsc1-c1ccc(C(C)NC(=O)C2CC(O)CN2C(=O)C(NC(=O)CCCCCCCCCCN2CCCC(Nc3ncc(Cl)c(Nc4ccccc4S(=O)(=O)C(C)C)n3)C2)C(C)(C)C)cc1 (stereo not shown)", "tested on": "22Rv1", "assay": "RNA-seq, refers to: VPS18 mRNA", "conditions": "concentration not given", "scale": "relative to: DMSO", "quantity": "log2 fold change", "value": -1.04}
{"Structure (SMILES)": "Cc1cc(=O)c2c(O)c3c(O[C@@H]4O[C@H](CO)[C@@H](O)[C@H](O)[C@H]4O)cc(O)cc3cc2o1", "tested on": "HK-2 co-cultured with HepaRG", "assay": "MTT", "conditions": "66.67 µM, 24 h", "scale": "relative to: untreated control", "quantity": "cell viability", "value": "83.1 ± 11.8%"}
{"Structure (SMILES)": "N#C[C@@H]1CC(F)(F)CN1C(=O)CNC(=O)c1ccnc2c(NC(=O)[C@@H](N)CCCCNC(=O)CCOCCOCCOCCOCCOCCOCCNC(=O)CN3CCN(CC(=O)[O-])CCN(CC(=O)[O-])CCN(CC(=O)[O-])CC3)cccc12.[177Lu+3]", "tested on": "U-87 MG tumour model", "test system": "host not given, blood", "conditions": "24 h, tumour-bearing", "quantity": "tracer uptake", "value": "0.01 %ID/g"}
{"Structure (SMILES)": "CC(C)OCCOCc1ccc(OCC(O)CN(N=O)C(C)C)cc1 (stereo not shown)", "tested on": "Salmonella typhimurium", "assay": "Ames test", "test system": "TA100", "conditions": "5 µg/plate, 30 % hamster S9", "scale": "relative to: solvent control", "quantity": "revertant fold increase", "value": "1.1 fold"}
{"Structure (SMILES)": "Nc1ncc(-c2cc(-c3cnn(CC(F)(F)F)c3)ncc2F)nc1C(=O)NC1CNCC(F)C1 (stereo not shown)", "tested on": "TEC", "assay": "KINOMEscan competition binding", "conditions": "1 µM", "scale": "relative to: DMSO control", "quantity": "remaining binding", "value": "100%"}
{"Structure (SMILES)": "CNS(=O)(=O)Nc1nccc(Cc2c(C)c3ccc(Oc4ncccc4F)cc3oc2=O)c1F", "tested on": "NCI-H209", "assay": "cell viability", "conditions": "7 days", "quantity": "IC50", "value": "> 1 µM"}
{"Structure (SMILES)": "COC1CN([C@H]2CC[C@H]([C@@]3(C)Oc4c(Cl)cc(C(=O)NCc5c(SC)cc(C)[nH]c5=O)c(C)c4O3)CC2)C1", "assay": "RNA-seq, refers to: MCF2L mouse homolog", "test system": "mouse, HT-1376 xenograft, whole blood", "conditions": "dose not given", "scale": "relative to: vehicle", "quantity": "log2 fold change", "value": 0.603}
{"Structure (SMILES)": "CNC(=O)C1CCCN(C(=O)C2CC3CCC2N3C(=O)[C@@H]2C[C@@H](O)CN2C(=O)NCc2cccc(Cl)c2F)C1 (mixture of isomers)", "tested on": "Cytochrome P450 1A2 (CYP1A2, Homo sapiens, UniProt P05177)", "assay": "preincubation without NADPH", "test system": "human", "conditions": "0.617 µM", "scale": "relative to: negative control", "quantity": "remaining activity", "value": "97.4% and 102% and 93.1%"}
{"note": "Repeated from above:"}
{"Structure (SMILES)": "C=CC(=O)Nc1cccc(Cn2ncc3cnc(Nc4cnn(CCOC)c4)nc32)c1", "tested on": "PKN2 human", "assay": "binding, KINOMEscan", "conditions": "100 nM", "scale": "lower = stronger binding", "quantity": "percent of control", "value": "42%"}
